{"data": "Results gathered from unrelated publications", "note": "Every numbered part comes from another study and shows a few of its results, in no order. Positions count from the first letter of the parent shown."}
{"data": "Sample 1", "target": "Ras GTPase-activating protein-binding protein 1, C-terminal RGG region (G3BP1, Homo sapiens, UniProt Q13283)", "method": "RNA Bind-n-Seq", "molecule type": "RNA", "medium": "in vitro", "concentration": "1 µM", "notes": "whole 134-nt RNA, ends assumed", "with": "150 mM KCl", "reference": "input library", "reading": "higher = stronger binding", "chain of UniProt Q13283 (whole entry, looked up)": "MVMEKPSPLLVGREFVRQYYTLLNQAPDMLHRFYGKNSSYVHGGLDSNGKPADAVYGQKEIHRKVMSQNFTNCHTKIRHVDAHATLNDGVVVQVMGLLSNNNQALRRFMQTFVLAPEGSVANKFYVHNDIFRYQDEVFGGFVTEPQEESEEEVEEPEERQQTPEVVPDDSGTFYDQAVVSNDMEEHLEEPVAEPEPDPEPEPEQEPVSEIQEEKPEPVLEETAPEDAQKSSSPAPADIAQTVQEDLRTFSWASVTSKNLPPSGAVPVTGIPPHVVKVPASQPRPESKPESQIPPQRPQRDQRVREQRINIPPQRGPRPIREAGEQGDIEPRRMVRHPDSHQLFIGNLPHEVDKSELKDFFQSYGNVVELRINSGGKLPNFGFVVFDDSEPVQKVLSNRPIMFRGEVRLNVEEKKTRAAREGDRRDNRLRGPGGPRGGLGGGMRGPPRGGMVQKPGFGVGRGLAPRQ"}
{"Sequence": "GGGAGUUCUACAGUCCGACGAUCUCAAGUCCUGUGCUACACAUCGUAUGUACCGAAUCGGUUUGGUUUUUGGUUUGGAAAGUAUUAUGUUACGCCGUUCGGAUCUGCACUUCCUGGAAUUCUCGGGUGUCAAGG", "log2 enrichment": -1.14}
{"Sequence": "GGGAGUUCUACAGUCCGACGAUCUCAAGUCCUGUGCUACACAUCGUAUGUACCGAAUCGGCCCGGGGCCCGGCCCGGAAAGUAUUAUGUUACGCCGUUCGGAUCUGCACUUCCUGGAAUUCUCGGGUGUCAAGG", "log2 enrichment": -1.25}
{"Sequence": "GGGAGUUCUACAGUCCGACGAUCCAAGUCCUGUGCUACACAUCGUAUGUACCGAAUCGGUUUGGUUUGGUUUUUUUGGAAAGUAUUAUGUUACGCCGUUCGGAUCUGCACUUCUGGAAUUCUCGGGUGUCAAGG", "log2 enrichment": -1.67}
{"Sequence": "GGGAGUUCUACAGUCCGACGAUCUGGCCCUGGUGGCAUGCGGGGAGGAAGAGGUGGCCUCAUGGAUCGUGGUGGUCCCGGUGGAAUGUUCAGAGGCGGCCGUGGUGGAGACAGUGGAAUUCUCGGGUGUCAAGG", "log2 enrichment": 3.44}
{"Sequence": "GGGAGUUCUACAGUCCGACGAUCAAGUCCUGUGCUACACAUCGUAUGUACCGAAUCGGGCCCCGGGCCCCGGCCCCGGGGAAAGUAUUAUGUUACGCCGUUCGGAUCUGCACUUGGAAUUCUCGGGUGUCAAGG", "log2 enrichment": -2.3}
{"Sequence": "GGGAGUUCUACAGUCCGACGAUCUUGUGUUCGUGAAUUGUAACUCCAGAAGCAAUGCCUGUACAAGCUCCACAAUGGACGGAUUUCCUCUCCUGCCCAAUUUGCACUCAGACUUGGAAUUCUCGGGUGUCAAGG", "log2 enrichment": 0.655}
{"Sequence": "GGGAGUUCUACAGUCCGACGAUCCCUGUGCUACACAUCGUAUGUACCGAAUCGGGGUUUUUUUGGGGUGGGGAAAAAAAGGGGAAAGUAUUAUGUUACGCCGUUCGGAUCUGCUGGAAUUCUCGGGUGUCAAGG", "log2 enrichment": 0.145}
{"Sequence": "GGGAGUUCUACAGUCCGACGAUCUCAAGUCCUGUGCUACACAUCGUAUGUACCGAAUCGGGGCCGGGGCCGGCCGGGAAAGUAUUAUGUUACGCCGUUCGGAUCUGCACUUCCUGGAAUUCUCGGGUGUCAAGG", "log2 enrichment": -1.47}
{"Sequence": "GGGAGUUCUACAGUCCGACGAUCGUCCUGUGCUACACAUCGUAUGUACCGAAUCGGGCCCCCGGGGCCCCCGGGCCCCCGGGAAAGUAUUAUGUUACGCCGUUCGGAUCUGCAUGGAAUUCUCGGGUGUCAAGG", "log2 enrichment": -2.05}
{"Sequence": "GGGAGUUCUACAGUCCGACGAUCAGUCCUGUGCUACACAUCGUAUGUACCGAAUCGGGUUUGGGUUUUUGGGUUUUUGGGAAAGUAUUAUGUUACGCCGUUCGGAUCUGCACUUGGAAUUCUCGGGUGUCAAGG", "log2 enrichment": 0.571}
{"Sequence": "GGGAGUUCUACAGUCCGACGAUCUCCUCAAGUCCUGUGCUACACAUCGUAUGUACCGAAUCGGAAGGAAGGAAGGAAAGUAUUAUGUUACGCCGUUCGGAUCUGCACUUCCAGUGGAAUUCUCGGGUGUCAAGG", "log2 enrichment": -0.684}
{"Sequence": "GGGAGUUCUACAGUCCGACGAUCUCCUGUGCUACACAUCGUAUGUACCGAAUCGGGGAAAGGGGUUUUUGGGGUUUUUGGGGAAAGUAUUAUGUUACGCCGUUCGGAUCUGCAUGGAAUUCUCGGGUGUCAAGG", "log2 enrichment": 1.76}
{"Sequence": "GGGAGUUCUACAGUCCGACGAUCAAGUCCUGUGCUACACAUCGUAUGUACCGAAUCGGGGAAAAGGGGAAAAGGAAAAGGAAAGUAUUAUGUUACGCCGUUCGGAUCUGCACUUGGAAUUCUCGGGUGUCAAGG", "log2 enrichment": -1.52}
{"Sequence": "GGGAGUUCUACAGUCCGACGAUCCACAGACAACACGCACCCACACAGACACAGAGGGAAGGGGUUGGGAUGGGGACAGGAAACACAGCAGGGCGGGGUAGGACCCCAGCCCCUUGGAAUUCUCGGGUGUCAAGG", "log2 enrichment": 0.00491}
{"data": "Sample 2", "target": "Interferon regulatory factor 7, full length, phosphomimetic (IRF7, Homo sapiens, UniProt Q92985, residues 1-503, S471D/S472D/S475D/S476D/S477D/S483D/S484D/S487D)", "method": "protein-binding microarray", "molecule type": "double-stranded DNA, one strand shown", "medium": "in vitro", "concentration": "2200 nM top", "notes": "60-bp whole probe", "with": "salmon DNA 0.4 mg/ml", "reference": "random background probes", "reading": "higher = stronger binding", "constant ends, left off below": "GCCTAGCAC … GTCTTGATTCGCTTGACGCTGCTG", "Construct (chain)": "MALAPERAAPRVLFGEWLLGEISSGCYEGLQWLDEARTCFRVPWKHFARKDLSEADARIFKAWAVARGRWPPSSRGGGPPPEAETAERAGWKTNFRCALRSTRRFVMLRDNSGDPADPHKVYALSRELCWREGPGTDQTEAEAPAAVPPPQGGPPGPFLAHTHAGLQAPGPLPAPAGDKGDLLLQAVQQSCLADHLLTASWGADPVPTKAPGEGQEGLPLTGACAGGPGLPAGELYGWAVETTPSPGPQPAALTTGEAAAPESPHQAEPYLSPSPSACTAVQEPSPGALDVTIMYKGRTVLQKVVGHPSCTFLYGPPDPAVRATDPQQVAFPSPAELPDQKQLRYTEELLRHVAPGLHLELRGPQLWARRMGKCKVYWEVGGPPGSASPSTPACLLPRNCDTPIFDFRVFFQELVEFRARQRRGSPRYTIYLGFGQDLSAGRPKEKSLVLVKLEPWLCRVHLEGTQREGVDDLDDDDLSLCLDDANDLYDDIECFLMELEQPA"}
{"Sequence": "TTAGGTATCCTTATCATTTAGTGCTAG", "fitted relative affinity [z-score]": 0.46}
{"Sequence": "GACTATATCAGTCTCGAGACGTGCTAG", "fitted relative affinity [z-score]": 0.449}
{"Sequence": "TTAGGTATCGGGTACCGGTTAGTGCTA", "fitted relative affinity [z-score]": -0.0851}
{"Sequence": "TCACGTAAGCAAAAATGACTGTGCTAG", "fitted relative affinity [z-score]": -0.38}
{"Sequence": "CTTTAACTCATTCTCTGTTTGTGCTAG", "fitted relative affinity [z-score]": 1.59}
{"Sequence": "GACGGTATCGGCTATCGGGACGTGCTA", "fitted relative affinity [z-score]": -0.434}
{"Sequence": "TTTGCTTTCATTTATTTACTGTGCTAG", "fitted relative affinity [z-score]": 3.38}
{"Sequence": "TCAAGGGTCTGTTTGGGACTGTGCTAG", "fitted relative affinity [z-score]": -0.435}
{"Sequence": "TTAGGACTGGGGTTTCGTTTAGTGCTA", "fitted relative affinity [z-score]": 2.12}
{"Sequence": "TTGGCTTTCCTTTATGTCCTGTGCTAG", "fitted relative affinity [z-score]": 1.76}
{"Sequence": "GTGTATATGACAATGATGTTGTGCTAG", "fitted relative affinity [z-score]": 0.677}
{"Sequence": "TTAGGTATGGGTATCGGTTAGTGCTAG", "fitted relative affinity [z-score]": 0.256}
{"Sequence": "GTAGGACTGCTTATCCTTTAGTGCTAG", "fitted relative affinity [z-score]": 0.0675}
{"Sequence": "GACGATCTCAGACTGAAGACGTGCTAG", "fitted relative affinity [z-score]": 0.093}
{"data": "Sample 3", "target": "OGT, full length, His-tagged (human)", "method": "phage display, sequencing", "medium": "in vitro", "concentration": "1 µg OGT", "notes": "single substitutions, 15-mer displayed peptide, unchanged parent 16.7", "reference": "input library", "reading": "higher = stronger binding", "starting sequence": "peptide; NSEYMPQYQIIFAHQ"}
{"Change": "NAEYMPQYQIIFAHQ [S2A]", "fold enrichment [fold]": 18.2}
{"Change": "NSEYMPQYQIIRAHQ [F12R]", "fold enrichment [fold]": 0.673}
{"Change": "NSEAMPQYQIIFAHQ [Y4A]", "fold enrichment [fold]": 0.764}
{"Change": "NSEYMGQYQIIFAHQ [P6G]", "fold enrichment [fold]": 1.14}
{"Change": "NSEYMPQYQIIGAHQ [F12G]", "fold enrichment [fold]": 3.45}
{"Change": "NSEYMPQYQIIFAHH [Q15H]", "fold enrichment [fold]": 13.4}
{"Change": "NSEYMPQYQISFAHQ [I11S]", "fold enrichment [fold]": 5.41}
{"Change": "NSEYQPQYQIIFAHQ [M5Q]", "fold enrichment [fold]": 4.69}
{"Change": "NSWYMPQYQIIFAHQ [E3W]", "fold enrichment [fold]": 13}
{"Change": "NSEYMPQYWIIFAHQ [Q9W]", "fold enrichment [fold]": 2.08}
{"Change": "NSEKMPQYQIIFAHQ [Y4K]", "fold enrichment [fold]": 1.07}
{"Change": "NSEYMPQYQIIFATQ [H14T]", "fold enrichment [fold]": 15.5}
{"Change": "NKEYMPQYQIIFAHQ [S2K]", "fold enrichment [fold]": 14.2}
{"Change": "NLEYMPQYQIIFAHQ [S2L]", "fold enrichment [fold]": 15.9}
{"Change": "NSEYMPQDQIIFAHQ [Y8D]", "fold enrichment [fold]": 0.142}
{"Change": "NQEYMPQYQIIFAHQ [S2Q]", "fold enrichment [fold]": 16.5}
{"Change": "NSEYMPQYQIIFAHK [Q15K]", "fold enrichment [fold]": 30.1}
{"data": "Sample 4", "target": "Histone acetyltransferase KAT6A, winged helix 2, GST fusion (KAT6A, Homo sapiens, UniProt Q92794, residues 85-181)", "method": "protein binding microarray", "molecule type": "double-stranded DNA, one strand shown", "medium": "in vitro", "concentration": "not given", "notes": "8-mer, flanks averaged, mean of 2 arrays, mostly near background", "reference": "not given", "reading": "higher = stronger binding", "Construct (chain)": "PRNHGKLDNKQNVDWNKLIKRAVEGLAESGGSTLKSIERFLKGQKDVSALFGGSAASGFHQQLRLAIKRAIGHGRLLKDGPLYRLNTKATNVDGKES"}
{"Sequence": "GGCTCCTA", "E-score": 0.0664}
{"Sequence": "CATGCCCA", "E-score": -0.0977}
{"Sequence": "CGTTCACC", "E-score": -0.072}
{"Sequence": "GACTTTGA", "E-score": -0.0411}
{"Sequence": "AGCCACCG", "E-score": 0.146}
{"Sequence": "GTCGAAAC", "E-score": 0.124}
{"Sequence": "AACCGTAC", "E-score": -0.244}
{"Sequence": "GAAGCTGC", "E-score": -0.00326}
{"Sequence": "TACTAGAA", "E-score": -0.0829}
{"Sequence": "TGGTCCAA", "E-score": -0.128}
{"Sequence": "GGACCTTA", "E-score": -0.0543}
{"Sequence": "CACAGTAC", "E-score": -0.00923}
{"Sequence": "CGCCGCGA", "E-score": 0.206}
{"Sequence": "TACGGCAA", "E-score": 0.0114}
{"Sequence": "ACAGAGGC", "E-score": -0.00167}
{"Sequence": "ATAGTGCG", "E-score": 0.0212}
{"Sequence": "AAACCACC", "E-score": -0.0966}
{"data": "Sample 5", "target": "CCNA2, cyclin fold, Cln2 fusion (human)", "method": "yeast growth competition, sequencing", "medium": "yeast", "notes": "strong parent motif", "reference": "not given", "reading": "higher = stronger binding", "starting sequence": "CDKN1A docking peptide (human); SKACRRLFGPVDS"}
{"Change": "V11G", "normalised enrichment score": 5.65}
{"Change": "R6H", "normalised enrichment score": 2.54}
{"Change": "G9F", "normalised enrichment score": 5.88}
{"Change": "V11P", "normalised enrichment score": 5.6}
{"Change": "F8E", "normalised enrichment score": -0.474}
{"Change": "F8V", "normalised enrichment score": 0.941}
{"Change": "K2F", "normalised enrichment score": 4.2}
{"Change": "A3L", "normalised enrichment score": 2.6}
{"Change": "F8Y", "normalised enrichment score": 2.06}
{"Change": "D12A", "normalised enrichment score": 4.89}
{"Change": "K2V", "normalised enrichment score": 4.61}
{"Change": "P10Y", "normalised enrichment score": 5.1}
{"Change": "A3N", "normalised enrichment score": 0.44}
{"Change": "F8M", "normalised enrichment score": 0.401}
{"Change": "K2D", "normalised enrichment score": 3.62}
{"Change": "P10G", "normalised enrichment score": 5.3}
